Results from different studies.
Each numbered part is a random draw from the data of one study; scales do not carry over between parts.
Sequence of UniProt P29320 (whole entry, looked up): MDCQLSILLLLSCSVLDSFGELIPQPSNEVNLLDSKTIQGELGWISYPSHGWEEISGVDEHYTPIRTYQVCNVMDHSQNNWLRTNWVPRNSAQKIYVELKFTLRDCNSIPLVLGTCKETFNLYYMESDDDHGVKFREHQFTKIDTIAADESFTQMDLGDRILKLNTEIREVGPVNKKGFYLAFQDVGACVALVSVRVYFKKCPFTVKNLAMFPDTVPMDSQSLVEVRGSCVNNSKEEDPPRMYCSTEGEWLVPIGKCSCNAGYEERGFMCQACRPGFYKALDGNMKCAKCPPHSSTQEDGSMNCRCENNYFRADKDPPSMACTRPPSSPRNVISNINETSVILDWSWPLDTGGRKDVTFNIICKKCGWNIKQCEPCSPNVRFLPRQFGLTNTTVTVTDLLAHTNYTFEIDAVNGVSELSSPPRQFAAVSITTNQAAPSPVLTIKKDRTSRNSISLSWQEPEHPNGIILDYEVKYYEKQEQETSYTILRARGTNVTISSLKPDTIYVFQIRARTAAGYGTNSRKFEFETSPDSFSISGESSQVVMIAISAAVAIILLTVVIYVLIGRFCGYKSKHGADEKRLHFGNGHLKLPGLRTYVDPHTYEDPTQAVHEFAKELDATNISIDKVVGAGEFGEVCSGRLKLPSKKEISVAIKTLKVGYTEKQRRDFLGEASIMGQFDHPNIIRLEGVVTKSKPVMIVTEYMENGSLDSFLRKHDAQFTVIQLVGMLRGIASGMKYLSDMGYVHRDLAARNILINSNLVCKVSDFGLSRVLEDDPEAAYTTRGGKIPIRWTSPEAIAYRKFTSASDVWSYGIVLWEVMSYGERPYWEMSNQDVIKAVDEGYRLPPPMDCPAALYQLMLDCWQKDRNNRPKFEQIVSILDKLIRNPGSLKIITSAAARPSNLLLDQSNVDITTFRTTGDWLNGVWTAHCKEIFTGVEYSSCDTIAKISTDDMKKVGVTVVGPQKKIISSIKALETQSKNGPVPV
Sequence of UniProt P27361 (whole entry, looked up): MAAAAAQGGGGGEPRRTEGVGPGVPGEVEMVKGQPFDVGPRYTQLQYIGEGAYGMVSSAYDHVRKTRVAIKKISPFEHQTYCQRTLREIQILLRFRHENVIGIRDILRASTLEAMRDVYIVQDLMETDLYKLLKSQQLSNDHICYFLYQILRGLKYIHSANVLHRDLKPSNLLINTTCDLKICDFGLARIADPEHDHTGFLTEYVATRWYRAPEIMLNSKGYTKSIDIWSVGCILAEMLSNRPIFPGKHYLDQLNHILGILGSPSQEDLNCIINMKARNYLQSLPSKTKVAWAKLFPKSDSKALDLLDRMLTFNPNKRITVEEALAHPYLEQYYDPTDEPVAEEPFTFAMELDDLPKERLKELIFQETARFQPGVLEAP
Sequence of UniProt P06239 (whole entry, looked up): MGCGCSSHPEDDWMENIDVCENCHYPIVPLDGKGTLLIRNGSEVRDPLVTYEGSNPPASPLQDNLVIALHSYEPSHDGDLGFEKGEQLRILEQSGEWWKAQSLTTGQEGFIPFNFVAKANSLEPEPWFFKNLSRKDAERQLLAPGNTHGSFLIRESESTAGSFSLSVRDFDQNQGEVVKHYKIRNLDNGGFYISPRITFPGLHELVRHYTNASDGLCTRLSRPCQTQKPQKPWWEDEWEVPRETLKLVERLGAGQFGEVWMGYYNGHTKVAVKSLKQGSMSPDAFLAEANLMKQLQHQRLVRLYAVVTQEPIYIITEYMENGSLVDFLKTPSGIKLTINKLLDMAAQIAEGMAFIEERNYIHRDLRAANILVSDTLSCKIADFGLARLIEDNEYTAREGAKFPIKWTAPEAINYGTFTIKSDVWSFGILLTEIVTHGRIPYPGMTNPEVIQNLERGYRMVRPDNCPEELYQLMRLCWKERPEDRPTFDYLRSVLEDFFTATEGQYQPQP
Sequence of UniProt Q9HC98 (whole entry, looked up): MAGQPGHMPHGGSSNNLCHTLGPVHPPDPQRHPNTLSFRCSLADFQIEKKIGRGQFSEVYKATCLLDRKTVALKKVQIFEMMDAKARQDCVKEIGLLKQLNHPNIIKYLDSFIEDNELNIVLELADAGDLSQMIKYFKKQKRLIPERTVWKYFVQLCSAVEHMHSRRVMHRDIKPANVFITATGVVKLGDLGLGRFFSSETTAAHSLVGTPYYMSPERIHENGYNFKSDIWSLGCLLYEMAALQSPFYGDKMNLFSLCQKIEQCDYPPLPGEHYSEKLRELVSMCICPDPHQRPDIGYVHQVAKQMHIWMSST
Sequence of UniProt Q8TD08 (whole entry, looked up): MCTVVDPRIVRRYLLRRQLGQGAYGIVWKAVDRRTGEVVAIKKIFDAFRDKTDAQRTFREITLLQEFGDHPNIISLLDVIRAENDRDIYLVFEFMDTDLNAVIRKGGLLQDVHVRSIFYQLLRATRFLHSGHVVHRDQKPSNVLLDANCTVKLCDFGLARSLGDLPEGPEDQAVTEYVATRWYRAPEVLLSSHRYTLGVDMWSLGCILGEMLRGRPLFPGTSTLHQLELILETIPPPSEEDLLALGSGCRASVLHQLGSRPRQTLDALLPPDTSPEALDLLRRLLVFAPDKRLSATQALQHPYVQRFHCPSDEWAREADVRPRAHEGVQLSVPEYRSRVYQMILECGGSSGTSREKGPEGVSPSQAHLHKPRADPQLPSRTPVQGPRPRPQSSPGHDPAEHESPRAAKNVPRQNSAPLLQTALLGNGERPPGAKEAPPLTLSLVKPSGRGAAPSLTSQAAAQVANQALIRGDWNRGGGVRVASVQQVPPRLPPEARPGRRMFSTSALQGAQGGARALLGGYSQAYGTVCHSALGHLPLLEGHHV
Sequence of UniProt P36896 (whole entry, looked up): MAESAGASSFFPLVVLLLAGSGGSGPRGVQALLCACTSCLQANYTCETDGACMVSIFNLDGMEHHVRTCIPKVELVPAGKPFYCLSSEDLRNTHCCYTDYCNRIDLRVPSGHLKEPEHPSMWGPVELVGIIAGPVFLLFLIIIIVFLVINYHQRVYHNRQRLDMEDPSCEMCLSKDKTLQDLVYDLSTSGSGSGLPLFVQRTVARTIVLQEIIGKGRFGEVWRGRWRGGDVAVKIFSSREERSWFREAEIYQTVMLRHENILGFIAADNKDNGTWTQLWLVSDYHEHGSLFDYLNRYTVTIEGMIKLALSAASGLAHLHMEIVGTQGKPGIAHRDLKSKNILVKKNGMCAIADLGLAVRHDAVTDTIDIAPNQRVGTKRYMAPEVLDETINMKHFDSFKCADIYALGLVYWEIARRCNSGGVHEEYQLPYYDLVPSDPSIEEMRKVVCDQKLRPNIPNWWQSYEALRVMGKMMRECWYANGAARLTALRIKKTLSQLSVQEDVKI
Sequence of UniProt Q12866 (whole entry, looked up): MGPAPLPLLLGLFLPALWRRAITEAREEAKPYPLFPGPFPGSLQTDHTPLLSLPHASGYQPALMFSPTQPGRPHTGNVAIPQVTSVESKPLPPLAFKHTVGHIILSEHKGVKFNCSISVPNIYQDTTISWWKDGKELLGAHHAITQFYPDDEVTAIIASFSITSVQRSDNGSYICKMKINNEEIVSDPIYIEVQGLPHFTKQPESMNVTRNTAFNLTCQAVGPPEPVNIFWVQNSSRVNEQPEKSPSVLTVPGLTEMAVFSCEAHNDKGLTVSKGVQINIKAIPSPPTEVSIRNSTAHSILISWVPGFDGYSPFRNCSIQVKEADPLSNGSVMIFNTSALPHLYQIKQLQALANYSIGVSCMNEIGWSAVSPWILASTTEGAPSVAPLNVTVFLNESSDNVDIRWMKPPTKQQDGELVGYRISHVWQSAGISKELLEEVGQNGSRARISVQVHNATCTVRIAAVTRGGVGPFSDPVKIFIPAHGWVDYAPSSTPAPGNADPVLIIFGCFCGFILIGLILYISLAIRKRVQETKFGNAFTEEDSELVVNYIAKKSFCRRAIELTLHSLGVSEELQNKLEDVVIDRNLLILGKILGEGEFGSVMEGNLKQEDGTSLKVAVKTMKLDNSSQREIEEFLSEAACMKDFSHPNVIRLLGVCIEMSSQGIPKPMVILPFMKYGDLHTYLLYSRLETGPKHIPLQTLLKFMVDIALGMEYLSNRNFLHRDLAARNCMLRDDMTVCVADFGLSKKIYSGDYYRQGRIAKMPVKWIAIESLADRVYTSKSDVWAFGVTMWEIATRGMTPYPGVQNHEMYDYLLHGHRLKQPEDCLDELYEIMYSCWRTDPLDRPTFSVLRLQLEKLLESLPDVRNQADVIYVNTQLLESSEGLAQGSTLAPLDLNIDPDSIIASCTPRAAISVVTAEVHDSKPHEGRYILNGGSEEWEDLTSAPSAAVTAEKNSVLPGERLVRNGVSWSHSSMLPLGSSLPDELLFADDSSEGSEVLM
Sequence of UniProt P50613 (whole entry, looked up): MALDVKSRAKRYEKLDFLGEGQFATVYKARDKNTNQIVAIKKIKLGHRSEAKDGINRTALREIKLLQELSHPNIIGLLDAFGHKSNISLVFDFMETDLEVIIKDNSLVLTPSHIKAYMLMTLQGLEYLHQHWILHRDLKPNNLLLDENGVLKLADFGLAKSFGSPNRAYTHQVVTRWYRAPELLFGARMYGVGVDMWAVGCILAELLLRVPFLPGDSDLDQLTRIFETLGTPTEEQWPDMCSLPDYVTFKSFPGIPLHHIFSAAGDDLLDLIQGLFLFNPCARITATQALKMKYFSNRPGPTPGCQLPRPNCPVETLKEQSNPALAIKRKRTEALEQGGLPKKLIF

Block 1
Compound: O=C(N1CCS(=O)(=O)CC1)N1C[C@H](c2ccc(OC(F)(F)F)cc2)C[C@H](c2nc(C3CC3)no2)C1
Effect on: cell-free assay
Technique: competition with immobilised ligand
Concentration: 1 µM
target | remaining binding
MAPK15 (Homo sapiens, UniProt Q8TD08) | 100%
ULK1 (Homo sapiens, UniProt O75385) | 100%
PRPF4B (Homo sapiens, UniProt Q13523) | 97%
CDK7 (Homo sapiens, UniProt P50613) | 100%

Block 2
Target: Prothrombin, mature alpha-thrombin (F2, Homo sapiens, UniProt P00734)
Technique: aptamer microarray, sandwich
Molecule type: DNA with 2'F-ANA
Matrix: in vitro
Concentration: 200 nM
Setting: whole 15-mer aptamer, many near background
With: Cy3 exosite-II aptamer, 400 nM
Direction: higher = stronger binding
Oligonucleotide: GGTTGGTGTGGTTGG
Modification | mean fluorescence intensity
2'F-ANA at 2 3 6 7 9 11 14 | 310 a.u.
2'F-ANA at 1 2 3 5 8 9 11 12 | 105 a.u.
2'F-ANA at 1 2 3 5 6 8 10 12 | 51.6 a.u.
2'F-ANA at 1 3 4 7 9 10 11 13 | 58 a.u.
2'F-ANA at 1 4 10 12 14 | 94.8 a.u.
2'F-ANA at 1 3 4 8 12 15 | 534 a.u.
2'F-ANA at 1 4 5 6 7 8 11 14 | 58.8 a.u.
2'F-ANA at 2 3 7 10 12 | 544 a.u.

Block 3
Target: PABPC1L2, full length, GST fusion (mouse, UniProt A0ABA7IW68)
Technique: RNAcompete
Molecule type: RNA
Matrix: in vitro
Concentration: 20 nM
Setting: 7-mer, probes averaged, single round
Baseline: mean of 7-mers
Direction: higher = stronger binding
Target sequence (chain): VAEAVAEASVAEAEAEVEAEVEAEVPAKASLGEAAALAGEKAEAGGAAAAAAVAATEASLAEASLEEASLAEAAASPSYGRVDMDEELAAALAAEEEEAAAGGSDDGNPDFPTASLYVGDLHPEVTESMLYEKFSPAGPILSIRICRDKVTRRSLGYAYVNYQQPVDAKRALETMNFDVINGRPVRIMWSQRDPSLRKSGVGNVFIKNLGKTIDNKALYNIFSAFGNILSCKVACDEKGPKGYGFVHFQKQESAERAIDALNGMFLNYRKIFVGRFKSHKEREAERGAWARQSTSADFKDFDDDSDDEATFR
Oligonucleotide | 7-mer Z-score
CCCUCAC | -0.311
AAGUCAG | 0.184
GUGAACU | -0.197
UUUCUAC | -0.313
UACUGGG | -0.148
GUUAUGU | -0.309
GGGGUGG | 0.253
UCAAGGA | -0.0373

Block 4
Compound: COc1ccc(C(=O)Nc2sc3c(c2C(N)=O)CCCC3)cc1OC
Effect on: enzyme activity
Mode: inhibitor
Concentration: 0.5 µM
Baseline: control
target | remaining activity [%]
MAPK3 (Homo sapiens, UniProt P27361) | 95.2
LCK (Homo sapiens, UniProt P06239) | 93.8
NEK6 (Homo sapiens, UniProt Q9HC98) | 92.7
MAP3K5 (Homo sapiens, UniProt Q99683) | 94.8
EPHA3 (Homo sapiens, UniProt P29320) | 108
FGFR3 (Homo sapiens, UniProt P22607) | 98.3
MERTK (Homo sapiens, UniProt Q12866) | 85.4
GRK7 (Homo sapiens, UniProt Q8WTQ7) | 95.5
ACVR1B (Homo sapiens, UniProt P36896) | 101
FGFR1 (Homo sapiens, UniProt P11362) | 94.8

Excerpt of the above (block 4):
target | remaining activity [%]
EPHA3 (Homo sapiens, UniProt P29320) | 108
MAP3K5 (Homo sapiens, UniProt Q99683) | 94.8
